Literature values that unrelated publications cite.
Compare with care: the assays were run in different laboratories. Numbers after ± are the reported error.
ACE: Angiotensin-converting enzyme (ACE, Homo sapiens, UniProt P12821)
Sequence of UniProt P12821 (whole entry, looked up): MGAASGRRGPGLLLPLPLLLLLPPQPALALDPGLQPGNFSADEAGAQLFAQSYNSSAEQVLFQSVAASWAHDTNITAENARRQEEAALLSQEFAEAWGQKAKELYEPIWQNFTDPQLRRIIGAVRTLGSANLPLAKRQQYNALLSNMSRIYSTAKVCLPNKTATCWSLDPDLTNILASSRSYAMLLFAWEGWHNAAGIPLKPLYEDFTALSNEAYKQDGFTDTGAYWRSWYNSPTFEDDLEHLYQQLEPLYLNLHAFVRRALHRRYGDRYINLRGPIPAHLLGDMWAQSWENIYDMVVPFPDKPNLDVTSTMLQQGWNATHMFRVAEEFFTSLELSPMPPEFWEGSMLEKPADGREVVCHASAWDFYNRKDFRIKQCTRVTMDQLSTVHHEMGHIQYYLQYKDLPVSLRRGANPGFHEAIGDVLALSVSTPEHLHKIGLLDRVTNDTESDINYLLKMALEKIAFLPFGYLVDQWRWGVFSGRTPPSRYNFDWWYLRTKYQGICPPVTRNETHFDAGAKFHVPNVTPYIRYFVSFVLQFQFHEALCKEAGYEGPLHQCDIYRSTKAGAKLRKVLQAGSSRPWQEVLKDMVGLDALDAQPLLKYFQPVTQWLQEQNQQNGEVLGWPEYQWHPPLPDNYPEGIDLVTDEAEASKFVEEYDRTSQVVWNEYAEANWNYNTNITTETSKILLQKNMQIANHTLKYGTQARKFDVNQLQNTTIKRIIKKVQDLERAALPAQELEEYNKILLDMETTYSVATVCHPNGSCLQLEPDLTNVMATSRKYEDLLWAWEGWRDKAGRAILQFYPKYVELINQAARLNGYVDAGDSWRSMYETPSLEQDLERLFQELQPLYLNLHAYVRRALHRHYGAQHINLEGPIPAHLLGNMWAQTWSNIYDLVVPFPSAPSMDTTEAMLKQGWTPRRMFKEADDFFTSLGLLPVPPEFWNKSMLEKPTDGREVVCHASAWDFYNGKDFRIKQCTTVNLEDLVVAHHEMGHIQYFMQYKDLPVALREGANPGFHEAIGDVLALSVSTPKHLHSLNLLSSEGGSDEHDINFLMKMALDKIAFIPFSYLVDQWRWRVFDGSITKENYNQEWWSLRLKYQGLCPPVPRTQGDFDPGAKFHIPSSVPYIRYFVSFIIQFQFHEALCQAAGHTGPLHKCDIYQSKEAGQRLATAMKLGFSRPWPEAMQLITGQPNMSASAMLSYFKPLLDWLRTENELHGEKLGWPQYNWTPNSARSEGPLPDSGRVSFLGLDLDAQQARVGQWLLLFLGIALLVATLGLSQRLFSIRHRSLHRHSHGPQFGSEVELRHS
PTGS2: Prostaglandin G/H synthase 2 (PTGS2, Homo sapiens, UniProt P35354)
Sequence of UniProt P35354 (whole entry, looked up): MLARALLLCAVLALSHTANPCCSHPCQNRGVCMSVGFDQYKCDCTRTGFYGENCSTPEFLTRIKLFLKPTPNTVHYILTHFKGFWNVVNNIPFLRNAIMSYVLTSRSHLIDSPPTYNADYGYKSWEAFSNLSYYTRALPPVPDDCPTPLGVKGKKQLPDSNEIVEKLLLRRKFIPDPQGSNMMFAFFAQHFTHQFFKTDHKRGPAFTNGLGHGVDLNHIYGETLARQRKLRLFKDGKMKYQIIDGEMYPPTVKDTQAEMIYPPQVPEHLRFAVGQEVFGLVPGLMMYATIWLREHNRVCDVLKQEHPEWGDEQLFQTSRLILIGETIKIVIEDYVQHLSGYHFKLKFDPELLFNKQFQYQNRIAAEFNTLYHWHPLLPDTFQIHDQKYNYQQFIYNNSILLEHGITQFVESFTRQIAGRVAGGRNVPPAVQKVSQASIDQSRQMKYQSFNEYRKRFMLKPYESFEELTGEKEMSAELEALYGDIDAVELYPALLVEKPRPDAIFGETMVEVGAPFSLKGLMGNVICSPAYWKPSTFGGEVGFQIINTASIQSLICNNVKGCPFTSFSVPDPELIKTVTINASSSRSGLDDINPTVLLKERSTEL
B1: CCL1; sequence looked up; chain KSMQVPFSRCCFSFAEQEIPLRAILCYRNTSSICSNEGLIFKLKRGKEACALDTVGWVQRHRKMLRHCPSKRK
Sequence of UniProt Q9ZMY2 (whole entry, looked up): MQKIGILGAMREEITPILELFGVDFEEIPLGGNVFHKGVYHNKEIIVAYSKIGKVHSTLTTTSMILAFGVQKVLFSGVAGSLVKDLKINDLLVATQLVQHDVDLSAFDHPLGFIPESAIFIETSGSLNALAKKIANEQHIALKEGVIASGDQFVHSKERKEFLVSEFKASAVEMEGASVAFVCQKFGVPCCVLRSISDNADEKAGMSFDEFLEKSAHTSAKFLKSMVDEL

GVLY
IC50 (ACE; enzyme activity, inhibitor; peptide): 16 µM

pegcetacoplan
bioavailability (cynomolgus monkey; subcutaneous, dose not given): ~85%

tolmetin
IC50 (PTGS2; inhibitor): 0.82 µM

Ivermectin
EC50 (GABA-A receptor; literature value): 3 µM

AHFSSLESEV
Kd (CHAPSYN-110 PDZ domains 2/3; binding, fluorescence polarization; peptide): 3.91 µM

GVLDNLKSAAKDLAGHLATKVIKKI
MIC (Staphylococcus aureus; peptide, ATCC 33591): 8 µg/mL

SPGPW
IC50 (ACE; inhibitor; peptide): 1310 µM

CHRSYYTWNLNC
IC50 (CD274 (Homo sapiens, UniProt Q9NZQ7); binding; peptide): 0.18 µM

Et-DADMe-ImmA
Ki (Aminodeoxyfutalosine nucleosidase (Helicobacter pylori, UniProt Q9ZMY2); enzyme activity, inhibitor; tighter complex after isomerization): 0.053 ± 0.007 nM

B1 (CCL1)
EC50 (CCR8 S110H mutant; IP accumulation, agonist): > 1 µM

HTHSYIETHV
Kd (CHAPSYN-110 PDZ domain 3; binding, fluorescence polarization; peptide): 5.27 µM

bromfenac
IC50 (PTGS2; inhibitor): 0.00745 µM

GQLNKFIKKAQRKFHEKFAK
MIC (Staphylococcus aureus; peptide, ATCC 33591): > 512 µg/mL

ELDEFPETSV
Kd (CHAPSYN-110 PDZ domain 3; binding, fluorescence polarization; peptide): 4.95 µM

DIGGL
IC50 (ACE; enzyme activity, inhibitor; peptide): 10.3 µM

oxaprozin
IC50 (PTGS2; inhibitor): 36 µM

VRPGVKESLV
Kd (CHAPSYN-110 PDZ domains 2/3; binding, fluorescence polarization; peptide): 1.53 µM

ITAPHW
IC50 (ACE; peptide): 51.7 µM

tolmetin sodium dihydrate
IC50 (PTGS2; inhibitor): 0.82 µM

Some of these lines once more:
GVLDNLKSAAKDLAGHLATKVIKKI
MIC (Staphylococcus aureus; peptide, ATCC 33591): 8 µg/mL

oxaprozin
IC50 (PTGS2; inhibitor): 36 µM
